Published values from different studies.
Lines come from different studies, so protocols differ. “And” joins repeats or separate records; there may be more than shown. Numbers after ± are the reported error.
PRKAA1 with beta1, gamma1: 5'-AMP-activated protein kinase catalytic subunit alpha-1, with beta1, gamma1 (PRKAA1, Homo sapiens, UniProt Q13131)
PRKAA1: 5'-AMP-activated protein kinase catalytic subunit alpha-1 (PRKAA1, Homo sapiens, UniProt Q13131)

SMILES	target	test	system	setting	scale	endpoint	value
C=CC(=O)N1Cc2nc(-c3cc(-c4cc(Cl)cnc4Cl)c(F)cc3F)n(-c3ccncn3)c2C1	PRKAA1 with beta1, gamma1	kinome panel	–	1 µM	–	inhibition	14.1%
COCC12C(=O)NC3C4(C(OC)CC1O)C1CC5(O)C(OC)C(O)C(OC(C)=O)(C1C5OC(=O)c1ccccc1)C3(O)C(OC)C24 (stereo not drawn)	PRKAA1	kinase activity, inhibitor, ProQinase kinase profiling	–	25 µM	reference: control	remaining activity	87% and 93%
CNC(=O)C1CCN(c2cc(C)c(F)cc2NC(=O)c2ccc(-c3cc(O)ccc3C)c(C)c2)CC1	PRKAA1	binding, competition with immobilised ligand	–	1 µM	–	remaining binding	100%
C=CC(=O)N1CCCC(n2c(=O)c3ncccc3n(Cc3ccc(Oc4ccccc4)cc3)c2=O)C1 (stereo not drawn)	PRKAA1	binding, competition with immobilised ligand	–	1 µM	–	remaining binding	100%
COc1cc(Nc2nccc(-c3cnn4nc(OC)ccc34)n2)cc(C(F)(F)F)c1	PRKAA1	binding, competition with immobilised ligand	–	1 µM	–	remaining binding	80%
O=C(Cc1ccc(OCc2ccccc2)cc1)NC1(C(=O)O)CCN(C(=O)c2ccc(-c3cccc(Cl)c3)cc2)CC1	PRKAA1	kinase activity, inhibitor	–	10 µM, added: ATP at Km	–	remaining activity	98%
Cc1cnc2nc1Nc1cccc(c1)COC/C=C/COCc1cc(ccc1OCCN1CCOCC1)N2	PRKAA1	binding, competition with immobilised ligand	–	0.1 µM	–	remaining binding	99%
CCCCCCCCCCCCC/C=C/C=O	PRKAA1	competitive isoTOP-ABPP	Ramos soluble proteome	100 µM, added: iodoacetamide probe	reference: DMSO over compound-treated, higher = stronger cysteine blockade	isoTOP-ABPP competition ratio	1.2
CN1CC[C@@H](COc2cnc(C#N)cc2-c2ccn3nc(NC(=O)C4CC4)cc3c2)C1	PRKAA1	enzyme activity, inhibitor	–	1 µM	–	inhibition	-1%
CN1CCN(Cc2ccc(-c3ccc(CO[C@H]4CCC[C@@H]4NC(=O)c4cc(-c5cnn(C)c5)cnc4N)cc3)cc2)CC1	5'-AMP-activated protein kinase catalytic subunit alpha-1, with beta1, gamma3 (PRKAA1, Homo sapiens, UniProt Q13131)	SelectScreen kinase profiling	–	0.1 µM	–	inhibition	0%
Cc1cccc(O[C@H]2CCC[C@@H](C(C)CNCc3ccncc3)C2)c1 (relative stereo)	PRKAA1 with beta1, gamma1	kinome profiling	–	10 µM	–	inhibition	5%
O=C(O)CCC(=O)c1cccc(NS(=O)(=O)c2c[nH]c3ncccc23)c1	PRKAA1	kinase activity, radiometric	–	10 µM	–	remaining activity	90%
COc1ccc(O)cc1-c1c[nH]c2ncc(-c3cncc(C(=O)N(C)C)c3)cc12	PRKAA1 with beta1, gamma1	KINOMEscan	–	0.2 µM	–	inhibition	36.6 ± 8.66%
C=CC(=O)Nc1cccc(-c2cnc3[nH]cc(C(=O)NC(C)(C)C)c3n2)c1	PRKAA1 with beta1, gamma1	enzyme activity, inhibitor	–	0.1 µM	–	inhibition	49%
CCn1cc(C(=O)O)c(=O)c2c(N)c(F)c(NC3CCCCC3)cc21	5'-AMP-activated protein kinase catalytic subunit alpha-1, with beta2, gamma3 (PRKAA1, Homo sapiens, UniProt Q13131)	kinase activity	–	0.1 µM, added: ATP at Km	–	inhibition	-1.6%

Excerpt of the above:
SMILES	target	test	system	setting	scale	endpoint	value
CCn1cc(C(=O)O)c(=O)c2c(N)c(F)c(NC3CCCCC3)cc21	5'-AMP-activated protein kinase catalytic subunit alpha-1, with beta2, gamma3 (PRKAA1, Homo sapiens, UniProt Q13131)	kinase activity	–	0.1 µM, added: ATP at Km	–	inhibition	-1.6%
C=CC(=O)Nc1cccc(-c2cnc3[nH]cc(C(=O)NC(C)(C)C)c3n2)c1	PRKAA1 with beta1, gamma1	enzyme activity, inhibitor	–	0.1 µM	–	inhibition	49%
